Published values collected from several papers.
Compare with care: the assays were run in different laboratories. Several values in a cell are separate wells, animals, samples, runs or records. ± marks the error that the study gave. ≈ marks a conversion by molar mass, not a printed value.
Organism: Escherichia coli

| SMILES | test | test system | setting | scale | measurement | result |
| --- | --- | --- | --- | --- | --- | --- |
| Nc1ccc2c(c1)B(O)OC2 | – | ATCC 25922 | 2xMIC, 1 h | – | post-antibiotic effect | 0.62 ± 0.1 h |
| N#Cc1c(-c2ccc(OCc3ccccc3)cc2)c(C(N)=O)c(N)n(N)c1=O | time-kill | – | 1 x MIC, 15 min | – | viable count | 5.83 log CFU/mL |
| N=C(N)c1ccc(OCCCOc2ccc(C(=N)N)cc2)cc1 | – | BW25113 | concentration not given, lowest-FICI combination, with: rifampicin | – | MIC in combination | 100 µg/mL |
| CNC(C)C1CCC(N)C(OC2C(N)CC(N)C(OC3OCC(C)(O)C(NC)C3O)C2O)O1 (centres unmarked) | – | ATCC 25922 | – | – | MIC | 1.3 µM |
| CC(C)Oc1c(NC(=O)c2ccc(NC(=O)[C@H](CC(N)=O)NC(=O)c3ccc(NC(=O)c4ccc(C#N)cc4)cc3)cc2)ccc(C(=O)Nc2ccc(C(=O)O)cc2)c1O | – | ATCC 25922, neutropenic mouse thigh infection | intravenous, 20 mg/kg/day, 5 mg/kg/dose | relative to: vehicle | bacterial burden reduction | 3.97 log10 CFU/g |
| C#CCCCC(=O)NCC | LuxR reporter, antagonist | DH5α sensor strain | 100 µM, with: OHHL 200 nM | – | inhibition | 3 ± 6% |
| CC(=O)Oc1ccc(-c2c(C(N)=O)c(N)n(N)c(=O)c2C#N)cc1 | time-kill | – | 1 x MIC, 15 min | – | viable count | 6.12 log CFU/mL |
| CC1(C)S[C@@H]2[C@H](NC(=O)[C@H](N)c3ccc(O)cc3)C(=O)N2[C@H]1C(=O)O | – | MTCC 405 | 10 µg/mL | – | zone of inhibition | 26 mm |
| N=C(N)c1ccc(OCCS(=O)(=O)CCOc2ccc(C(=N)N)cc2)cc1 | – | BW25113 | concentration not given, lowest-FICI combination, with: erythromycin | – | MIC in combination | 3.13 µg/mL |
| C=C[C@]1(C)C[C@@H](OC(=O)CSC(C)(C)CNC(=O)[C@H](N)C(C)C)[C@]2(C)[C@H](C)CC[C@]3(CCC(=O)[C@H]32)[C@@H](C)[C@@H]1O | – | ATCC 25922 | – | – | MIC | > 40 µM |
| N=C(N)c1ccc(OCCCCCCCCOc2ccc(C(=N)N)cc2)cc1 | – | BW25113 | concentration not given, lowest-FICI combination, with: erythromycin | – | MIC in combination | 6.25 µg/mL |
| CN[C@H](CC(C)C)C(=O)N[C@H]1C(=O)N[C@@H](CC(N)=O)C(=O)N[C@H]2C(=O)N[C@H]3C(=O)N[C@H](C(=O)N[C@H](C(=O)O)c4cc(O)cc(O)c4-c4cc3ccc4O)[C@H](O)c3ccc(c(Cl)c3)Oc3cc2cc(c3O[C@@H]2O[C@H](CO)[C@@H](O)[C@H](O)[C@H]2O[C@H]2C[C@](C)(N)[C@H](O)[C@H](C)O2)Oc2ccc(cc2Cl)[C@H]1O | – | ATCC 25922 | 128 µg per disk | – | inhibition zone diameter | 11 mm |
| NC[C@H]1O[C@H](O[C@H]2[C@H](O)[C@@H](O[C@H]3O[C@H](CO)[C@@H](O)[C@H](N)[C@H]3O)[C@H](N)C[C@@H]2N)[C@H](O)[C@@H](O)[C@@H]1O | – | CGMCC 1.9 | concentration not given, 18 h, 37 °C | – | inhibition zone diameter | 0 mm |
| N=C(N)c1ccc(OCCCCCCCOc2ccc(C(=N)N)cc2)cc1 | – | BW25113 | concentration not given, lowest-FICI combination, with: rifampicin | – | MIC in combination | 12.5 µg/mL |
| N=C(N)c1ccc(/N=N/Nc2ccc(C(=N)N)cc2)cc1 | bacterial growth, inhibitor, OD600 | E22 | overnight | – | MIC90 | 1390 ± 115 µM (≈ 391 µg/mL) |
| C[C@@H](O)[C@H]1C(=O)N2C(C(=O)O)=C(SCCN=CN)C[C@H]12 | – | ATCC 25922, female ICR mice, wound infection, full-thickness wound | dose not given | – | bacterial load | 6.68 log CFU/g and 6.9 log CFU/g and 6.79 log CFU/g and 6.6 log CFU/g and 6.83 log CFU/g |
| CCn1cc(C(=O)O)c(=O)c2cc(F)c(N3CCNCC3)cc21 | – | CGMCC 1.9 | concentration not given, 18 h, 37 °C | – | inhibition zone diameter | 11 mm |
| COC[C@H]1O[C@@H]2O[C@@H]3[C@@H](OC)[C@@H](OC)[C@@H](O[C@@H]4[C@@H](OC)[C@@H](OC)[C@@H](O[C@@H]5[C@@H](OC)[C@@H](OC)[C@@H](O[C@@H]6[C@@H](OC)[C@@H](OC)[C@@H](O[C@@H]7[C@@H](OC)[C@@H](OC)[C@@H](O[C@@H]1[C@@H](OC)[C@H]2OC)O[C@@H]7COC)O[C@@H]6COC)O[C@@H]5COC)O[C@@H]4COC)O[C@@H]3COC | LuxR reporter, agonist | DH5α sensor strain | 1 µM | – | bioluminescence | 771 ± 26 RLU |

| SMILES | test | test system | setting | scale | measurement | result |
| --- | --- | --- | --- | --- | --- | --- |
| C[C@H]1COc2c(N3CCN(C)CC3)c(F)cc3c(=O)c(C(=O)O)cn1c23 | – | ATCC 25922 | – | relative to: 5% CO2 over ambient air | MIC fold shift | 2 |
| N=C(N)c1ccc(OCCC(CCOc2ccc(C(=N)N)cc2)c2ccccc2)cc1 (centres unmarked) | – | ATCC 25922 | concentration not given, with: rifampicin | – | MIC in combination | 6.25 µg/mL |
| [Cl][Fe]([Cl])[Cl] | – | – | 24 h, 37 °C | – | MIC50 | > 1600 µM |
| NC(=O)C[C@H](N)C(=O)O | chemotactic response, attractant, FRET | – | – | – | EC50 | 0.9 µM |
| C[C@H]1COc2c(N3CCN(C)CC3)c(F)cc3c(=O)c(C(=O)O)cn1c23 | – | ATCC BAA-1025 | – | – | MBC | 2.93 µg/mL (≈ 8.11 µM) |
| NCC(=O)O | chemotactic response, attractant, FRET | – | – | – | EC50 | 93.4 µM |
| N=C(N)c1ccc(OCc2ccc(-c3ccccc3)cc2COc2ccc(C(=N)N)cc2)cc1 | checkerboard | mcr-2 polymyxin-resistant | unit not given, with: rifampicin | lower = stronger synergy | FICI | 0.094 |
| C=C1C(=O)O[C@@H]2[C@H]3O[C@]3(C)CC/C=C(\C)CC[C@@H]12 | – | – | 100 µM, 6 h, unit not given | relative to: untreated | remaining growth | 0.933 |
| COC(=O)[C@H]1[C@H]2C[C@@H]3c4[nH]c5cc(OC)ccc5c4CCN3C[C@H]2C[C@@H](OC(=O)c2cc(OC)c(OC)c(OC)c2)[C@@H]1OC | tetracycline MIC, checkerboard | tetracycline-resistant (pBR322) | 64 µM, with: tetracycline | relative to: MIC alone over combination | fold enhancement | 2 fold |
| NC[C@H]1O[C@H](O[C@H]2[C@H](O)[C@@H](O[C@H]3O[C@H](CO)[C@@H](O)[C@H](N)[C@H]3O)[C@H](N)C[C@@H]2N)[C@H](N)C[C@@H]1O | – | ATCC 25922 | – | relative to: 5% CO2 over ambient air | MIC fold shift | 4 |
| N=C(N)c1cccc(OCc2ccccc2COc2cccc(C(=N)N)c2)c1 | – | BW25113 | concentration not given, lowest-FICI combination, with: rifampicin | – | MIC in combination | 100 µg/mL |
| Cc1c(CN(C)C(=O)/C=C/c2cnc3c(c2)CC(NC(=O)OC(C)(C)C)C(=O)N3)oc2ccccc12 (centres unmarked) | broth microdilution | AR-0137 | – | – | MIC | > 32 µg/mL |
| OC[C@H]1O[C@@H]2O[C@H]3[C@H](O)[C@@H](O)[C@@H](O[C@H]4[C@H](O)[C@@H](O)[C@@H](O[C@H]5[C@H](O)[C@@H](O)[C@@H](O[C@H]6[C@H](O)[C@@H](O)[C@@H](O[C@H]7[C@H](O)[C@@H](O)[C@@H](O[C@H]8[C@H](O)[C@@H](O)[C@@H](O[C@H]1[C@H](O)[C@H]2O)O[C@@H]8CO)O[C@@H]7CO)O[C@@H]6CO)O[C@@H]5CO)O[C@@H]4CO)O[C@@H]3CO | LuxR reporter, antagonist | DH5α sensor strain | 1 µM, with: OHHL 200 nM | – | inhibition | -10 ± 7% |
| N[C@@H](CO)C(=O)O | chemotactic response, attractant, FRET | – | – | – | EC50 | 0.4 µM |
| C[C@H]1c2cccc(O)c2C(=O)C2=C(O)[C@]3(O)C(=O)C(C(N)=O)=C(O)[C@@H](N(C)C)[C@@H]3[C@@H](O)[C@@H]21 | – | CGMCC 1.9 | concentration not given, 18 h, 37 °C | – | inhibition zone diameter | 10 mm |
| CSCC[C@H](N)C(=O)O | chemotaxis pathway activity | MG1655 | – | – | EC50 | > 1000 µM |
| CNC(C)C1CCC(N)C(OC2C(N)CC(N)C(OC3OCC(C)(O)C(NC)C3O)C2O)O1 (centres unmarked) | – | CGMCC 1.9 | concentration not given, 18 h, 37 °C | – | inhibition zone diameter | 0 mm |
